Results pooled from the literature.
Protocols differ between the studies behind these lines. pIC50: −log10 of the molar value.
Cell line: ACHN

Compound	assay	conditions	scale	endpoint	result
C1=[N+]2CCCC[N+]3=Cc4ccc5[n]4[Au-]23[n]2c1ccc2-c1nc2ccccc2nc1-5.F[P-](F)(F)(F)(F)F	NCI60 five-dose screen			TGI	4 -log M
CN(C)CCN1CCN(c2ccc3nc(-c4ccc5nc(-c6ccc(C(F)(F)F)cc6)[nH]c5c4)[nH]c3c2)CC1	SRB	10 µM, 48 h		growth percent	79.3%
Cn1ncc(-c2ccc3c(=O)[nH]nc(CN)c3c2)c1-c1c(F)c(Cl)cc(OC2CC2)c1C#N	cell viability, inhibitor, CellTiter-Glo	120 h, baseline-subtracted		pIC50	6.43
O=C(Nc1nnc2c1c(-c1ccc(Cl)cc1)nc1sc(=Cc3ccco3)c(=O)n12)c1ccccc1 (mixture of isomers)	SRB	10 µM, NCI60 single-dose screen	baseline: untreated	cell growth	40.5%
CC(C)c1ccc(N(C)c2ccc3c(c2)OCC[C@H]3CNc2cnccc2C(=O)O)cc1	cell growth or viability, ATP luminescence	7 days		pIC50	7.46
Cc1ccc([N+](=O)[O-])cc1S(=O)(=O)N(C)/N=C/c1cnc2ccc(Br)cn12	MTS	NCI60 panel		pIC50	7.04
CCCC(CCC)C(=O)OCc1cn(-c2cc3ccccc3oc2=O)nn1	NCI60 single-dose screen	10 µM		growth percentage	96.1%
CCN(C(=O)c1cc(F)ccc1Oc1nncnc1N1CCC2(C1)CN([C@H](CCCN(C)CCOC)C(C)C)C2)C(C)C	cell growth or viability	7 days		GI50	> 10000 nM
CNS(=O)(=O)Nc1nccc(Cc2c(C)c3ccc(Oc4ncccc4F)cc3oc2=O)c1F	cell viability	7 days		pIC50	< 6.00

Some of these lines once more:
Compound	assay	conditions	scale	endpoint	result
CC(C)c1ccc(N(C)c2ccc3c(c2)OCC[C@H]3CNc2cnccc2C(=O)O)cc1	cell growth or viability, ATP luminescence	7 days		pIC50	7.46
